Measurements collected from several papers.
Numbered parts are unrelated; each lists some results of a single study.

Series 1 — technique: protein binding microarray; molecule type: double-stranded DNA, one strand shown; matrix: in vitro; tested at: not given; relative to: not given; direction: higher = stronger binding
Target: Histone acetyltransferase KAT6A, winged helix 2, GST fusion (KAT6A, Homo sapiens, UniProt Q92794, residues 85-181)
Notes: 8-mer, flanks averaged, mean of 2 arrays, mostly near background
Residues (chain): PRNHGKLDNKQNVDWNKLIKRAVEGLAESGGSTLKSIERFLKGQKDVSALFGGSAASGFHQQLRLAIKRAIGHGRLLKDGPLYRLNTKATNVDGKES
Sequence	E-score
AATTCCTG	-0.218
ACTTTGGA	0.0791
AGGAAGCA	0.0961
GCAGGGGA	0.141
AACATCCC	-0.0482
CAAGCAGA	0.163
ATATTCTA	-0.0306
CACTTCCC	-0.0332
ACCTAGGG	-0.107
AGCTTTCC	0.0918

Series 2 — technique: protein-binding microarray; molecule type: double-stranded DNA, one strand shown; matrix: in vitro; tested at: not given; direction: higher = stronger binding
Target: Protein max, full length (MAX, Homo sapiens, UniProt P61244-2, residues 1-151)
Notes: k-mer, scored over probes, only values ≥0.25
Sequence	E-score
TCACGTGA	0.489
CCATGCAC	0.34
TGCGTCCA	0.284
GTGGCACA	0.303
CACGTGGG	0.496
ATGTGTCG	0.32

Series 3 — technique: RNA Bind-n-Seq; molecule type: RNA; matrix: in vitro; tested at: 365 nM; relative to: no-protein control; direction: higher = stronger binding
Target: RNA binding protein fox-1 homolog 2, RRM domain, GST-SBP tag (RBFOX2, Homo sapiens, UniProt O43251-10, residues 100-194)
Notes: natural RNA segment, single round, ends assumed
Constant ends, left off below: GGGAGUUCUACAGUCCGACGAUC … UGGAAUUCUCGGGUGCCAA
Construct (chain): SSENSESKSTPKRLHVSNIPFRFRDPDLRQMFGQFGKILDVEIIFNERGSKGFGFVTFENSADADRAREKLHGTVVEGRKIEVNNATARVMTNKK
Sequence	RBNS enrichment (R)
GAGAGCCCUGCCGAUGUUGGGUUCUCCUCCUAUUGGGGAAACUUGAUCACAGAUGGAACACGUGCAGAUUGAUUGAUGAGUGCUGUGGAGAAAGCAGCAGCGUAGCGGGA	0.782
UGAGCUCUCAGUUGUACCUCCAACCCCUUUCUCCGGGACCAGCUAUGUGGUCCAGCUGUUUUAAUUGAGUGCUUUUAAAUGAAACCUGACUGCCAUCUUUCUUUUGUGAC	0.668
UACCACUGAAGUAGAAUUGAUUGUUCAGCUGGAGCCCAGAGAAUUUAAUUUAAUGUUUUUUCUUUGUACCUGAUGUGAAUUCUAGCAACCUUUGUUAGGAAAAAGCACAG	0.435
AAUAAUAACAACAAAAAAGCUUUGUUUAGUCUUUGUUUUGUUUUCCAGGACAAAAACAAGCUUCCCUAAGCUUGAAUUUAUAGUUAUAAAAUGAAAACAAAACCAAAAAA	0.45
GAUCAUGAUUUCCAGCCCACGGAGCCAGCAUUUGAACCUUGUAUAAUUAACUUUCAGUUAUGAUUUCCCAUCGACAUUUUCUUUGCCCUGUUUGUAGCUGAUUGUUGUGU	0.481
CCGAGGCUGCUCCCCUGGAGCGGCGCCCCUGCGCCCUCAGCCCGAGCAGCGACAUCCACUCGCCAUUUGCUGACAUGAGAUUGGGAGGAAGAAUCCAGAGGUGAAGAGGG	0.881
UCCUGUUUGGUUUUGGGAGGCAGGAAAAAAUCAAAACACAACACAACCAUUUCCUCUAUGUCCUGAGCUGGGACCUGCUGUCCUAAUGCUAAGGAUGAGGGCUGUCAAAC	0.337

Single results of other studies
Molecule	target	test	system	setting	scale	measurement	value
PhoQ, residues 284 288 289 292 302 303 ALASRC	PhoP, residues 12 14 15 18 19 GHCSL (Escherichia coli, UniProt P23836)	Sort-seq, refers to: YFP reporter	E. coli	PhoQ-PhoP variant library, with: 10 µM Mg2+	relative to: high Mg2+ state, higher = stronger signaling	fold induction	18.2

Excerpt of the above (series 1):
Sequence	E-score
GCAGGGGA	0.141
AACATCCC	-0.0482
